Published values of several laboratories.
Parts stem from different laboratories: compare values within a part only.

Series 1
Target: Interferon regulatory factor 3, full length, phosphomimetic (IRF3, Homo sapiens, UniProt Q14653, residues 1-427, S386D/S396D/S398D/S402D/T404D/S405D)
Technique: protein-binding microarray
Form: double-stranded DNA, one strand shown
Medium: in vitro
Concentration: 2540 nM top
Setting: 60-bp whole probe
Together with: salmon DNA 0.4 mg/ml
Reference: random background probes
Reading: higher = stronger binding
Constant ends, left off below: GCCTAGCAC … GTCTTGATTCGCTTGACGCTGCTG
Construct (chain): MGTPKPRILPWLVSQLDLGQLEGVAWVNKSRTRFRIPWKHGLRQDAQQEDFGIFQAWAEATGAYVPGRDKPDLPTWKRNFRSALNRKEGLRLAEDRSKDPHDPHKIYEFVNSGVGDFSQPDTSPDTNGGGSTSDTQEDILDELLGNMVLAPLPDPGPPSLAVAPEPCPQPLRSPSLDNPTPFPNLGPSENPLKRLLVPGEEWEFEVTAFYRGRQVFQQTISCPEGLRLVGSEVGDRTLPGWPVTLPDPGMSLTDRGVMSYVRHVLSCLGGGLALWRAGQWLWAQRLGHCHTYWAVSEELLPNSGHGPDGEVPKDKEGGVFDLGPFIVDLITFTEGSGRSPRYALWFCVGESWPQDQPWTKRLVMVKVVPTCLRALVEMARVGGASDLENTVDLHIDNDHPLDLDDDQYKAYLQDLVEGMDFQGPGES
| Sequence | fitted relative affinity [z-score] |
| --- | --- |
| GACGATATCGGGGATCGAGACGTGCTA | -0.0621 |
| TCAATATTGAGACTCATACTGTGCTAG | 0.176 |
| TCATTTTACTTTCTATGACTGTGCTAG | 3.92 |
| TTAGATATCGTGTATCGATTAGTGCTA | 0.263 |
| TTAGGTATCGACACTGGGTTCGTGCTA | 0.132 |
| TTAGGTATCCTTAACCTTTAGTGCTAG | 2.25 |
| TTAGGTATCCATTTCCTTTAGTGCTAG | 5.77 |

Series 2
Target: Sal-like protein 4, full length isoform A (SALL4, Homo sapiens, UniProt Q9UJQ4, residues 1-1053)
UniProt Q9UJQ4, sequence (whole entry, looked up): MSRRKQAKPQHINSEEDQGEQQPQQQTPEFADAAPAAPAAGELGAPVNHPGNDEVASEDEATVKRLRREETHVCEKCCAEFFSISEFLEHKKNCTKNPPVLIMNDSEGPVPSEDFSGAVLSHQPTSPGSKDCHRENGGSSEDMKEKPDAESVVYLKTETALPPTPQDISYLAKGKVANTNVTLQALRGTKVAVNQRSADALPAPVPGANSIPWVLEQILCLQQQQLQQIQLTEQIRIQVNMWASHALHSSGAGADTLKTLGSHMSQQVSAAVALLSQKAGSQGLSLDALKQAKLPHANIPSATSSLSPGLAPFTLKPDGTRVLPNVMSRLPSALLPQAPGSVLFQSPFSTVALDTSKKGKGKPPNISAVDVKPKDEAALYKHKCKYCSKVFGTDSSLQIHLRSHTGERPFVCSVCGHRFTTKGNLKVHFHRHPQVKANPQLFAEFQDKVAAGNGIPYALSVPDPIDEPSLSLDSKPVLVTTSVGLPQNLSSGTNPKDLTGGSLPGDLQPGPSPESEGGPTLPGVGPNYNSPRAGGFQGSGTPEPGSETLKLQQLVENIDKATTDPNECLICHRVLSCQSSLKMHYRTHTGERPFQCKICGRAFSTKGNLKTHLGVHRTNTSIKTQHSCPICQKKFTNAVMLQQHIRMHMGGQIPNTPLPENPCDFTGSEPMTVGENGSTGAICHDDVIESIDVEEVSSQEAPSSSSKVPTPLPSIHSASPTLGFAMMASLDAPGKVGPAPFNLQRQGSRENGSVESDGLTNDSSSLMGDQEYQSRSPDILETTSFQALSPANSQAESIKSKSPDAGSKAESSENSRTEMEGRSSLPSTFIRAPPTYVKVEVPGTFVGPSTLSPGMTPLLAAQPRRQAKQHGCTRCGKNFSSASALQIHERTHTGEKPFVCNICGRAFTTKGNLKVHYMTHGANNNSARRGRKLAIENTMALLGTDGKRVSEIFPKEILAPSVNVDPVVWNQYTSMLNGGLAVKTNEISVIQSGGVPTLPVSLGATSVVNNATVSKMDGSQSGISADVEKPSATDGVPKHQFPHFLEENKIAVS
Technique: universal PBM
Form: double-stranded DNA, one strand shown
Medium: in vitro
Concentration: 600 nM
Setting: 8-mer, flanks averaged, mean of replicates
Reading: higher = stronger binding
| Sequence | E-score |
| --- | --- |
| CGGGATCC | -0.28 |
| GAGTGTCC | -0.234 |
| GATTCCGC | -0.134 |
| CGCTTAAG | -0.153 |
| CTCGCGCA | -0.0565 |

Series 3
Target: Histone acetyltransferase KAT6A, winged helix 1, GST fusion (KAT6A, Homo sapiens, UniProt Q92794, residues 1-85)
Technique: protein binding microarray
Form: double-stranded DNA, one strand shown
Medium: in vitro
Concentration: not given
Setting: 8-mer, flanks averaged, mean of 2 arrays, mostly near background
Reference: not given
Reading: higher = stronger binding
Residues (chain): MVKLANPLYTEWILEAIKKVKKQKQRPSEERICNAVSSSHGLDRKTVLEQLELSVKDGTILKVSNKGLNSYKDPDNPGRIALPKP
| Sequence | E-score |
| --- | --- |
| AACCACGG | 0.134 |
| CTCAGATA | -0.185 |
| AGACTACC | -0.0261 |
| GCTGGTCA | -0.0102 |
| AGTGAGAG | -0.187 |
| ATCGTTGG | -0.232 |
| ACCACCAT | -0.0841 |

Mixed results
| Molecule | target | assay | system | conditions | scale | measurement | result |
| --- | --- | --- | --- | --- | --- | --- | --- |
| PhoQ, residues 284 288 289 292 302 303 SASVAL | PhoP, residues 12 14 15 18 19 SPWRL (Escherichia coli, UniProt P23836) | Sort-seq, measured: YFP reporter | E. coli | PhoQ-PhoP variant library, together with: 10 µM Mg2+ | reference: high Mg2+ state, higher = stronger signaling | fold induction | 1.59 |

For quick reference, copied from above (series 1):
| Sequence | fitted relative affinity [z-score] |
| --- | --- |
| TTAGGTATCGACACTGGGTTCGTGCTA | 0.132 |
| TTAGGTATCCTTAACCTTTAGTGCTAG | 2.25 |
| TTAGGTATCCATTTCCTTTAGTGCTAG | 5.77 |
